Experimental data of several laboratories.
A part holds a random share of what one study measured. Substitutions count along the parent as printed.

Study 1 — target: CEBPA, bZIP domain (human); method: DHFR protein complementation; sample: yeast; relative to: wild-type JUN-FOS pair; reading: higher = stronger binding; quantity: binding fitness
Setting: single substitutions, most at no-binding floor
Starting sequence: JUN, bZIP domain (human); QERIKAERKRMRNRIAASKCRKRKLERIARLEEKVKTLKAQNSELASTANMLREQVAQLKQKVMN; partner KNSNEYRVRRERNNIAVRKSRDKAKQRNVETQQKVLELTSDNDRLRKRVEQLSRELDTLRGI
T48W: -1.36 natural log
S43A: -1.33 natural log
A29L: -1.41 natural log
S47Y: -1.46 natural log
Q41R: -1.44 natural log
T48F: -1.48 natural log
V56G: -1.5 natural log
R53Q: -1.33 natural log
K39G: -1.47 natural log
I28P: -1.46 natural log
K39V: -1.41 natural log
L31C: -1.46 natural log
L45S: -1.42 natural log
R53W: -1.45 natural log
K34W: -1.52 natural log
A40L: -1.5 natural log
L38A: -1.51 natural log

Study 2 — method: DHFR PCA, deep sequencing; sample: yeast; together with: (+)-ABA 200 µM; relative to: wild-type fitted maximum; reading: higher = stronger binding; quantity: relative binding score
Target: ABI1, truncated, D143A, DHFR fusion (Arabidopsis thaliana)
Setting: methotrexate growth selection, single substitutions
Starting sequence: PYL1, truncated, DHFR fusion (Arabidopsis thaliana); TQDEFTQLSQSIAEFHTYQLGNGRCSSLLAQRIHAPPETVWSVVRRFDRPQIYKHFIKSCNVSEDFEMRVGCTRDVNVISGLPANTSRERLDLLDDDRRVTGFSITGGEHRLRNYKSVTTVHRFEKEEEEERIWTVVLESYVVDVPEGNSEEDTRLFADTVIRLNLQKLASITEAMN
T1G: 95.1%
R32V: 98%
E109R: 87.2%
K58R: 97.5%
A30D: 77.9%
E128K: 113%
V161H: 14.8%
A84E: 21.6%
A35T: 76%
N114G: 96.8%
V142E: 94.7%
V76R: -0.671%
Y141W: 54.5%
R98V: 94.8%
L94D: -2.97%
P50G: 4.22%
I12L: 80.4%

Study 3 — method: universal PBM; molecule type: double-stranded DNA, one strand shown; sample: in vitro; concentration: not given; reading: higher = stronger binding; quantity: E-score
Target: Sal-like protein 4, full length isoform B (SALL4, Homo sapiens, UniProt Q9UJQ4-2, residues 1-616)
Setting: 8-mer, flanks averaged, mean of replicates
AAGTCAGA: -0.119
AAAGGCGG: 0.00621
CCGGTCCC: -0.309
CACCTACC: -0.0841
TAACTACA: 0.175
TGGTCAAA: 0.0429
CCATACTC: -0.0933
AGCATTTC: 0.195
ACCGATTG: 0.0941
CGCAAACC: -0.164
CCTTTCAC: -0.0508
ATCAATTA: 0.316
GCGCTACC: -0.213
CCCAACGA: -0.0626
TCTTGCCA: -0.047
ACAATGAG: 0.0898
TCTGTACA: 0.217
CCACTCGC: -0.222
GATGCATC: 0.0524
GAGTGCAA: 0.0402
AGGATATG: 0.135
GGCCGACA: -0.246
ATACAGCC: 0.0257
GCATTTAC: 0.169
ATCGTCGC: -0.0157

Study 4 — target: CCNA2, cyclin fold, Cln2 fusion (human); method: yeast growth competition, sequencing; sample: yeast; setting: strong parent motif; relative to: not given; reading: higher = stronger binding; quantity: normalised enrichment score
Starting sequence: SCAPER docking peptide (human); SNARRSLNFGGST
SNARRSLAFGGST [N8A]: 4.52
SNARRSLNAGGST [F9A]: 0.668
SNARCSLNFGGST [R5C]: 2.83
SNARRSLNFGGAT [S12A]: 6.62
NNARRSLNFGGST [S1N]: 5.65
SNNRRSLNFGGST [A3N]: 1.74
DNARRSLNFGGST [S1D]: 4.68
SNARRSENFGGST [L7E]: -0.0354
SNARRSLNIGGST [F9I]: 1.15
SNARRSLIFGGST [N8I]: 4.8
SNARRSTNFGGST [L7T]: 0.807
SNARRSLNFGGSN [T13N]: 7.02
SNARRSLNFGGTT [S12T]: 6.25
SNARRSLNFGGGT [S12G]: 6.25
SNANRSLNFGGST [R4N]: 1.92
MNARRSLNFGGST [S1M]: 5.99
SNARRSLNFLGST [G10L]: 4.96
SNARRSLNFAGST [G10A]: 5.64
SNARRSLNHGGST [F9H]: -0.0688
SNAFRSLNFGGST [R4F]: 2.27
SNARRSLNFGNST [G11N]: 5.91
SNARRSLNFDGST [G10D]: 5.78
SNARRTLNFGGST [S6T]: 5.66
SNRRRSLNFGGST [A3R]: 0.659
SNDRRSLNFGGST [A3D]: -0.532

Excerpt of the above (study 4):
NNARRSLNFGGST [S1N]: 5.65
SNNRRSLNFGGST [A3N]: 1.74
DNARRSLNFGGST [S1D]: 4.68
SNARRSENFGGST [L7E]: -0.0354
SNARRSLNIGGST [F9I]: 1.15
SNARRSLIFGGST [N8I]: 4.8
SNARRSTNFGGST [L7T]: 0.807
SNARRSLNFGGSN [T13N]: 7.02
SNARRSLNFGGTT [S12T]: 6.25
